Published values pooled from the literature.
± marks the error that the study gave.
CDK2 with cyclin A: Cyclin-dependent kinase 2, with cyclin A (CDK2, Homo sapiens, UniProt P24941)
GRM2: Metabotropic glutamate receptor 2 (GRM2, Homo sapiens, UniProt Q14416)
Chain of UniProt Q14416 (whole entry, looked up): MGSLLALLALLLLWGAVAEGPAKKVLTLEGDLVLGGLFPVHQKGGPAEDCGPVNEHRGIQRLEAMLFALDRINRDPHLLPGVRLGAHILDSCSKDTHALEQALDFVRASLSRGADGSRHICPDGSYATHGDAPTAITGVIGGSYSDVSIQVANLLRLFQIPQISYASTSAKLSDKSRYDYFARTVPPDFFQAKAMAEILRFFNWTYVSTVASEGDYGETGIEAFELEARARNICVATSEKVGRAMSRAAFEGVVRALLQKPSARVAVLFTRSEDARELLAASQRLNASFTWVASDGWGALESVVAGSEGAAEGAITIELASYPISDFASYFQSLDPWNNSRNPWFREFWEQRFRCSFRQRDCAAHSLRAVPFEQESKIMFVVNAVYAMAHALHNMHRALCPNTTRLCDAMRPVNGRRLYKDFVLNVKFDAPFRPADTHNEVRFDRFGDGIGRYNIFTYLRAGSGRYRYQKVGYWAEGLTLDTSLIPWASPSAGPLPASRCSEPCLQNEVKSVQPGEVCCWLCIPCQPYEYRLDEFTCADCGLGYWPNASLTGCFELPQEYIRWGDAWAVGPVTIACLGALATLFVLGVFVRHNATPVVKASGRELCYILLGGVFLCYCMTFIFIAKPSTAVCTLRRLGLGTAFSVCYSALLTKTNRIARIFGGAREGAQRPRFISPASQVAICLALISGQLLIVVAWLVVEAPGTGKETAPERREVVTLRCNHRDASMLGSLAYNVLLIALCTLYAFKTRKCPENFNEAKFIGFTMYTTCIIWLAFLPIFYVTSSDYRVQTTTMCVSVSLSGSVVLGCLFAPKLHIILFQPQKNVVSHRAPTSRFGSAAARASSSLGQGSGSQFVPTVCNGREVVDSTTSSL
Chain of UniProt P07339 (whole entry, looked up): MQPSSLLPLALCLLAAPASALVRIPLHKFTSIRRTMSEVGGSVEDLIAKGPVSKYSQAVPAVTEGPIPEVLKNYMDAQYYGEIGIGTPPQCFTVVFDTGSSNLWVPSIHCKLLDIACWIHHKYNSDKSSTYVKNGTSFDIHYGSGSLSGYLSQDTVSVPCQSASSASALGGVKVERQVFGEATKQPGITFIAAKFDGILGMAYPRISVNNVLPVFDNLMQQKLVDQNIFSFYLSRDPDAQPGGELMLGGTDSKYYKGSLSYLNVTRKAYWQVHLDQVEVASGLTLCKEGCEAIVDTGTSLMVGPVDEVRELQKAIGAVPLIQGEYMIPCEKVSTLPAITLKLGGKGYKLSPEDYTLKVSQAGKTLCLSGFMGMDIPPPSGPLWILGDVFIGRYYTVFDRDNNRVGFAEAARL

Compound | tested on | assay | test system | conditions | endpoint | result
Cc1cccc(-c2ccc3nc(NC(=O)C4CCC4)nn3c2)c1 | CDK2 with cyclin A | enzyme activity, inhibitor | – | – | IC50 | > 100000 nM
CCOCc1nnc2c(C(F)(F)F)c(-c3ccc4[nH]ccc4c3)ccn12 | GRM2 | agonist | – | no glutamate | EC50 | 1740 nM
O=C(O)COc1ccc(Br)cc1C=NNC(=O)Cc1ccccc1 (mixture of isomers) | – | item: ALP | mouse, serum | oral, 100 mg/kg, 48 h, safety assessment | serum enzyme activity | 127 ± 11.8 IU/L
O=C1Nc2ccc(S(=O)(=O)Nc3ccccc3)cc2C1=C1CCCC1 | RAW264.7 | item: IL-1β | – | concentration not given, with: LPS 100 ng/mL, 24 h | mRNA level | decreased
CC(C)C[C@H](NC(=O)[C@@H](NC(=O)[C@H](CCONC(=N)N)NC(=O)OCc1ccccc1)C(C)C)[C@@H](O)CC(=O)NCCc1ccccc1 | Cathepsin D (CTSD, Homo sapiens, UniProt P07339) | enzyme activity, inhibitor | – | – | IC50 | 520 nM
Cc1cccc(-c2ccc3nc(NC(=O)C4CCCNC4)nn3c2)c1 (centres unmarked) | CDK2 with cyclin A | enzyme activity, inhibitor | – | – | IC50 | > 100000 nM
C=CCCCC(C)(NC(=O)[C@H](Cc1c[nH]cn1)NC(=O)[C@@H](N)CC(=O)O)C(=O)N[C@@H](CC(N)=O)C(=O)N1CCC[C@H]1C(=O)N[C@@H](CCC(N)=O)C(=O)N[C@H](C(=O)N[C@@H](CCCNC(=N)N)C(N)=O)[C@@H](C)CC (some centres unmarked) | – | – | Kunming mouse, heart, liver, lung, kidney | subcutaneous, 5000 mg/kg | organ coefficients | no effect
Cc1cc(Oc2ccc(-c3ccn4c(CC5CC5)nnc4c3C(F)(F)F)cc2F)ccn1 | GRM2 | agonist | – | no glutamate | EC50 | 1860 nM

A few entries again:
Compound | tested on | assay | test system | conditions | endpoint | result
Cc1cccc(-c2ccc3nc(NC(=O)C4CCC4)nn3c2)c1 | CDK2 with cyclin A | enzyme activity, inhibitor | – | – | IC50 | > 100000 nM
